Assay results pooled from the literature.
Lines come from different studies, so protocols differ.
Target: Serine/threonine-protein kinase Nek1 (NEK1, Homo sapiens, UniProt Q96PY6)
Sequence (Q96PY6 1-1258, as in one of the studies): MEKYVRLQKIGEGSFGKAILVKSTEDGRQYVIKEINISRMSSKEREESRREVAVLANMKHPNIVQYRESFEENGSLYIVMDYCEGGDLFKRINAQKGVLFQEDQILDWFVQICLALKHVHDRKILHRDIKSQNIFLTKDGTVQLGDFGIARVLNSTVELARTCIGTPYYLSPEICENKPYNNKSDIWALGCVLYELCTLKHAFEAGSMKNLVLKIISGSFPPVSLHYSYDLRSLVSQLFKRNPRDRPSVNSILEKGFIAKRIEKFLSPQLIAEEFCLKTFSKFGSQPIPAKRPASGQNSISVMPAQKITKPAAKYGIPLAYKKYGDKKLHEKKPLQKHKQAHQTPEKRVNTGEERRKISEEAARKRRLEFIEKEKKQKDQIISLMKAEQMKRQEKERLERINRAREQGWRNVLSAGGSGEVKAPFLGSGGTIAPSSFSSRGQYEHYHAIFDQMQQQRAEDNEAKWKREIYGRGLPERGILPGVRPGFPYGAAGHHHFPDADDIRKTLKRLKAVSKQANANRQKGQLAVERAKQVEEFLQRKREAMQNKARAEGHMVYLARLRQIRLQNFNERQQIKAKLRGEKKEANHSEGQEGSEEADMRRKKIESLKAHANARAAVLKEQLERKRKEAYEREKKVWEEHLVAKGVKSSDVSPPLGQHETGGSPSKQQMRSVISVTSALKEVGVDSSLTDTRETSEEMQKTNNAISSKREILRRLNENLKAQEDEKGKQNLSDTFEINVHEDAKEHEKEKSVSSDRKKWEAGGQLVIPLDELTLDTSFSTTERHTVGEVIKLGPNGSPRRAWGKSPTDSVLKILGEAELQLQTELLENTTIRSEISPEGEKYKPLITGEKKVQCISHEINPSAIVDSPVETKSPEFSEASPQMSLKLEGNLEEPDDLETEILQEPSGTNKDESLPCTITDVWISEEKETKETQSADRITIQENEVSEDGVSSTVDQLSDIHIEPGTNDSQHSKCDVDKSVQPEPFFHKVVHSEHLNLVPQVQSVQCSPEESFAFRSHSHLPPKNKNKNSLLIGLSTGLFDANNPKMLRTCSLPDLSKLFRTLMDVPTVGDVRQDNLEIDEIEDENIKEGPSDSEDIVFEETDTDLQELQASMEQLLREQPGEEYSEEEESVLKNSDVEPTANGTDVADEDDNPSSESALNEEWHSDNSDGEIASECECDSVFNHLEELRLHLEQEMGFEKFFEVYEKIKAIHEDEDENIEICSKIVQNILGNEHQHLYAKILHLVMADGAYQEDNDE

Compound	test	setting	scale	quantity	result
C[C@H]1CN(C(=O)c2cn(-c3ccnc(N)n3)c3cc(C#CC4(O)CCCCC4)ccc23)CCN1	enzyme activity, inhibitor, FRET	1 µM		inhibition	13%
CN1C[C@@H](c2c[nH]c3cc(Br)ccc23)NC[C@@H]1c1c[nH]c2cc(Br)ccc12	enzyme activity, inhibitor	10 µM		remaining activity	102%
CC(C)=CC1OC(C)(C)C2C=C3C(=O)C(Cl)=CC(O)C3C3C(O)C4OC4C(=O)C132 (stereo not shown)	cell-free assay, competition with immobilised ligand	10 µM		remaining binding	89%
CN1CCN(Cc2ccc(-c3ccc(CO[C@H]4CCC[C@@H]4NC(=O)c4cc(-c5cnn(C)c5)cnc4N)cc3)cc2)CC1	enzyme activity, inhibitor	0.1 µM		inhibition	6%
C=CC(=O)Nc1cccc(-c2cnc3[nH]cc(C(=O)NC(C)(C)C)c3n2)c1	enzyme activity, inhibitor	0.1 µM		inhibition	29%
Cc1cnc2nc1Nc1cccc(c1)COC/C=C/COCc1cc(ccc1OCCN1CCOCC1)N2	binding	0.1 µM		remaining binding	100%
Cc1cccc(O[C@H]2CCC[C@@H](C(C)CNCc3ccncc3)C2)c1 (relative stereo)	enzyme activity, inhibitor	1 µM		inhibition	4%
Cc1ccc(-c2c(/C=C(\C#N)C(=O)NC(C)C)n(CCCO)c3ncnc(N)c23)cc1	cell-free assay, competition with immobilised ligand	1 µM		remaining binding	100%
NC(=O)C[C@H]1CCc2sc3ncnc(O[C@H]4CC[C@H](N5CCOCC5)CC4)c3c21	enzyme activity, inhibitor	10 µM		inhibition	11%
COc1cc(Nc2nc(C)cc(-c3cnn4nc(OC)ccc34)n2)cc(C(F)(F)F)c1	inhibitor	1 µM	relative to: control	remaining activity	100%
Nc1ncc(-c2cc(-c3cnn(CC(F)(F)F)c3)ncc2F)nc1C(=O)NC1CNCC(F)C1 (stereo not shown)	enzyme activity	1 µM	relative to: DMSO control	remaining activity	78.8%
CCn1cc(C(=O)O)c(=O)c2c(N)c(F)c(NC3CCCCC3)cc21	kinase activity	0.1 µM, together with: ATP at Km		inhibition	1.2%
CCN1CCN(Cc2ccc(C(=O)Nc3ccc(C)c(NCc4cnc5[nH]ccc5c4OC)c3)cc2C(F)(F)F)CC1	binding, competition with immobilised ligand	1 µM		remaining binding	63%
CNC1C[S+]2CC[S+]3CC[S+](C1)[Ru-4]321([N]=C=S)[n]2c3ccc(OC)cc3c3c4c(c5cc(F)c[n+]1c5c32)C(=O)NC4=O (stereo not shown)	KinomeScan	0.1 µM	relative to: untreated	remaining binding	100%
CNC(=O)C1CCN(c2cc(C)c(F)cc2NC(=O)c2ccc(-c3cc(O)ccc3C)c(C)c2)CC1	binding, competition with immobilised ligand	1 µM		remaining binding	92%
COc1ccc(O)cc1-c1c[nH]c2ncc(-c3cncc(C(=O)N(C)C)c3)cc12	binding, competition with immobilised ligand	0.2 µM		inhibition	5.59%

Repeated from above:
Compound	test	setting	scale	quantity	result
Cc1cnc2nc1Nc1cccc(c1)COC/C=C/COCc1cc(ccc1OCCN1CCOCC1)N2	binding	0.1 µM		remaining binding	100%
